Experimental data pooled from the literature.
Each line is one published result; not all experiments were run side by side. Values joined by “and” are separate records of one study, mostly repeats; a detail may differ. ± marks the error that the study gave.

| SMILES | cell line | test | conditions | how to read | measurement | value |
| --- | --- | --- | --- | --- | --- | --- |
| COc1cccc2c1C(=O)c1c(O)c3c(c(O)c1C2=O)C[C@@](O)(C(=O)CO)C[C@@H]3O[C@H]1C[C@H](N)[C@H](O)[C@H](C)O1 | HepG2 | CellTiter-Glo, item: cellular ATP | 24 h, distribution mode 2 |  | point of departure | 0.166 µM |
| C=C1C(=O)O[C@@H]2C[C@@]3(C)CCC[C@H](C)C3=C[C@H]12 | iPSC-derived cardiomyocytes | concentration-response curve, item: MyBP-C protein level |  |  | EC50 | > 50 µM |
| CC(C)NCC(O)c1ccc(O)c(O)c1 (stereo not drawn) | mouse ventricular cardiomyocytes |  | dose not given, 0.275 s |  | sarcomere length | 1.8 µm |
| Cn1cc(Nc2nccc(-c3ccc4c(c3)CN(C3COC3)CC[C@H]4NC(=O)c3cn(C(C)(C)C)nn3)n2)cn1 | mouse splenic B cells | item: Gαq signalling | 30 mg/kg, IgD-activated in vivo | reference: vehicle, direction not given | pathway activation z-score | 3.78 |
| CCCCN1CCN(c2ccc3nc(-c4ccc5nc(-c6cc(OC)ccc6OC)[nH]c5c4)[nH]c3c2)CC1 | 786-0 | cell growth, NCI-60 SRB | 10 µM, 48 h |  | growth percent | 100% |
| Cc1cccc(-c2[nH]c(CNc3ccccc3F)nc2-c2ccc3ncnn3c2)n1 | pomalidomide-resistant MM1.S cells | XTT | 3.5 µM | higher = more viable cells | XTT absorbance | 0.6 E-1 and 0.8 E-1 and 1.1 E-1 |
| Cc1cc(Nc2ncc(Cl)c(Nc3ccccc3S(=O)(=O)C(C)C)n2)c(OC(C)C)cc1C1CCNCC1 | CLB-GE | phosphoproteomics LC-MS/MS, item: ASAP3 phosphorylation | 200 nM, 60 min | reference: untreated | log2 fold change | -3.51 |
| COc1cc2c(c(OC)c1OC)C(=O)c1c(cc(C)c(O)c1OC)C2=O | HepaRG co-cultured with HK-2 | MTT | 133.33 µM, 24 h | reference: untreated control | cell viability | 52.4 ± 4.92% |
| COc1ccc2c(c1)NC(=O)CN2c1nc(C)nc2c1CCC2 | HCI-10-Luc2 | chemotaxis | with: human HGF 50 nM |  | lowest effective concentration | 0.5 nM |
| C[C@H]1Oc2cc(cnc2N)-c2c(nn(C)c2C#N)CN(C)C(=O)c2ccc(F)cc21 | Ba/F3 EML4-ALK v3, no mutation | cell viability |  |  | Emax | 99.5% |
| CCN(CC)CCCC(C)Nc1ccnc2cc(Cl)ccc12 (stereo not drawn) | COS-7 |  | 50 µM, 24 h, 0.1% DMSO, unit not given | reference: vehicle control | confluence | 0.88 ± 0.12 |
| CN(C)c1ccc(C(=O)NCCCCCC(=O)NO)cc1 | OCI-Ly1 |  | 1 µM, 120 h |  | viability | 86.9% |
| Clc1nc(NCc2ccco2)c2[nH]cnc2n1 | iPSC-derived cardiomyocytes | RNA-seq, item: chrX exon ending 73994961 | unit not given | reference: DMSO minus compound | ΔPSI | -0.204 |
| CCn1cc(-c2cc(Cn3ccnc3)cc3c2CCN([C@H](c2cc(OC)ccn2)C2CC2)C3=O)c(C(F)(F)F)n1 | G-361 | cell growth, inhibitor | 120 h |  | EC50 | 0.00403 µM |
| CCCCc1oc2ccc(NS(C)(=O)=O)cc2c1C(=O)c1ccc(OCCCN(CCCC)CCCC)cc1 | human embryonic stem cell aggregates | mRNA level, microarray, item: TBX6 | 0.5 µM, 120 h | reference: untreated, down-regulated | fold change | 4.5 fold |
| CC(=O)Nc1ccc(C(=O)Nc2ccccc2N)cc1 | OCI-Ly1 |  | 1 µM, 120 h |  | viability | 46.5% |
| COc1cc2ncnc(Nc3ccc(Oc4ccccc4)cc3C)c2cc1OC.O=C(O)C(F)(F)F | COLO 205 (BRAF V600E) | resazurin | 3 µM, 72 h, with: trametinib 0 nM |  | fractional effect | 39% |
| C[C@H](CCC(=O)NCCS(=O)(=O)O)[C@H]1CC[C@H]2[C@@H]3CC[C@@H]4C[C@H](O)CC[C@]4(C)[C@H]3CC[C@]12C | rat PCK cystic cholangiocytes | cell counting | 20 µM, 48 h | reference: untreated | proliferation increase | 62% |
| NC(=O)c1cccc(N)c1 | OCI-Ly1 |  | 0.5 µM, 120 h |  | viability | 68.2% |
| C[n+]1cc2c3c(ccc2c2ccc4cc5c(cc4c21)OCO5)OCO3 | iPSC-derived cardiomyocytes | concentration-response fit | concentration not given | reference: vehicle | fitted bottom MyBP-C level | 0% |
| [Cl-].[Cl-].[Ru+2].c1cnc2c(c1)ccc1cccnc12.c1cnc2c(c1)ccc1cccnc12.c1csc(-c2ccc(-c3ccc(-c4ccc(-c5nc6c7cccnc7c7ncccc7c6[nH]5)s4)s3)s2)c1 | SK-MEL-28 | cytotoxicity, resazurin | dark, normoxia |  | EC50 | < 100 µM |
| O=C(O)c1ccnc(C(=O)O)c1 | OCI-Ly1 |  | 1 µM, 120 h |  | viability | 169% |
| COc1ccc(-n2nc(C(C)=O)s/c2=N\N=C(/C)c2ccc(NC(=O)c3ccccc3)cc2)cc1 | MCF7 |  | 0.312 µM |  | toxicity | 95% |

| SMILES | cell line | test | conditions | how to read | measurement | value |
| --- | --- | --- | --- | --- | --- | --- |
| Cc1nc2ccc(OCc3ccc(F)cc3)cc2[nH]1 | sample A patient iPSC-derived NPCs | MTS | 10 µM, 24 h | reference: vehicle | viability | 137 ± 19.6% |
| CCCCc1nc2cc(/C=C/C(=O)NO)ccc2n1CCN(CC)CC | OCI-Ly1 |  | 0.5 µM, 120 h |  | viability | 4.59% |
| CC/C(=N\NC(=O)NCc1cccc(O)c1)c1ccc(O)c(C)c1O | SK-OV-3 | gene expression, microarray, item: CYR61 | 10 µM, 24 h | reference: DMSO | log ratio | 4.85 |
| COc1cnc2cccc(N3CCc4c(cc(Cn5ccnc5C)cc4-c4cn(C)nc4C(F)(F)F)C3=O)c2c1 | HSC-4 | cell growth, inhibitor | 120 h |  | EC50 | > 30 µM |
| Cn1c(Nc2nc3ccc(C(F)(F)F)cc3s2)nc2cc(C(=O)NCCOCCO)ccc21 | SH-SY5Y | RNA-seq, item: FOSL2 mRNA | 5 µM, 5 h | reference: untreated cells | fold change | 1.63 |
| COc1cccc2c(Nc3ccc4[nH]c(C(=O)N/N=C/c5ccc(SC)cc5)cc4c3)cc(C)nc12 | COS-7 |  | 3 µM, 24 h, 0.1% DMSO, unit not given | reference: vehicle control | confluence | 0.9 ± 0.05 |
| Cc1ccc(CNC(=O)Cn2cc(CSc3nc4ccccc4[nH]3)nn2)cc1 | HEK293 | MTT | 125 ppm |  | cytotoxicity | 89% |
| COc1ccc(NC(=S)N/N=C/c2cccc3cc4ccccc4nc23)cc1 | HeLa | PI flow cytometry | IC25, 48 h, with: N-acetylcysteine |  | G2/M phase cells | 10.4 ± 0.6% |
| Clc1ccc(N/N=C(\c2ccccc2)c2ccccn2)nc1 | OCI-Ly1 |  | 0.5 µM, 120 h |  | viability | 0.519% |
| Cn1cc(-c2ccc(-c3cncc(Cl)c3N3CCC4(CCNC4=O)CC3)cc2)cn1 | COLO 205 | gene expression, microarray, item: P4HA2 mRNA | concentration not given, 6 h | reference: untreated cells | log2 fold change | 3.86 |
| O=C(/C=C/C=C/C=C/C1CCCCC1)NC1=C[C@@](O)(/C=C/C=C/C=C/C(=O)NC2=C(O)CCC2=O)[C@@H]2O[C@@H]2C1=O | SNU878 | cell growth, CellTiter-Glo | 78 h |  | GI50 | 26.6 µM |
| COc1cc(/C=C/C(=O)N2CCC=CC2=O)cc(OC)c1OC | MDA-MB-468 | quantitative RT-PCR, item: PDK1 | 30 µM, 8 h | reference: untreated cells | mRNA level | 97.2 ± 6.4% |
| O=C(CCCCCN1C(=O)c2cccc3cccc(c23)C1=O)NO | OCI-Ly1 |  | 0.1 µM, 120 h |  | viability | 146% |
| C[C@]12CCCN1CC1=NNC(=O)c3cc(F)cc4[nH]c2c1c34 | SNU-16 gastric cancer cells | cell viability | concentration not given, with: with temozolomide |  | EC50 | 1.8 µM |
| FC(F)(F)Oc1ccc(CNc2ccc3nc(S)[nH]c3c2)cc1 | sample A patient iPSC-derived NPCs | MTS | 10 µM, 24 h |  | reduction in viability | 5% |
| COc1cc2c(c(O)c1OC)C(=O)c1c(cc(C)c(O[C@@H]3O[C@H](CO)[C@@H](O)[C@H](O)[C@H]3O)c1OC)C2=O | HepaRG co-cultured with HK-2 | MTT | 66.67 µM, 24 h | reference: untreated control | cell viability | 81.4 ± 19.9% |
| CNCc1ccc(-c2[nH]c3cc(F)cc4c3c2CCNC4=O)cc1 | OCI-Ly1 |  | 0.1 µM, 120 h |  | viability | 174% |
| CCCCc1nc(Cl)c(CO)n1Cc1ccc(-c2ccccc2-c2nn[nH]n2)cc1 | human PBMC | RNA-seq, item: CD36 mRNA | 10 µg/mL, 24 h | reference: untreated control | log2 fold change | -1.83 |
| CCn1c(=Cc2cccc[n+]2C)sc(=C2Sc3ccccc3N2C)c1=O.[Cl-] | iPSC-derived cardiomyocytes | concentration-response fit | concentration not given | reference: vehicle | fitted top MyBP-C level | 110% |
| CCn1cc(-c2cc(Cn3ccoc3=N)cc3c2CCN([C@@H](C)c2cc(OC)ccn2)C3=O)c(C(F)(F)F)n1 | MV4-11 | cell growth, inhibitor | 120 h |  | EC50 | 0.0199 µM |
| COc1cc(NC(C)CCCN)c2ncccc2c1 (stereo not drawn) | iPSC-derived cardiomyocytes | concentration-response curve, item: MyBP-C protein level | 24 h |  | EC50 | 11.9 µM |
| O=C(Nc1nnc2n3c(=S)[nH][nH]c3nc(-c3ccc(Cl)cc3)c1-2)c1ccccc1 | 786-0 | NCI60 SRB | 10 µM |  | growth percent | 72.4% |

Repeated from above:
| SMILES | cell line | test | conditions | how to read | measurement | value |
| --- | --- | --- | --- | --- | --- | --- |
| CCn1cc(-c2cc(Cn3ccnc3)cc3c2CCN([C@H](c2cc(OC)ccn2)C2CC2)C3=O)c(C(F)(F)F)n1 | G-361 | cell growth, inhibitor | 120 h |  | EC50 | 0.00403 µM |
| CCCCc1oc2ccc(NS(C)(=O)=O)cc2c1C(=O)c1ccc(OCCCN(CCCC)CCCC)cc1 | human embryonic stem cell aggregates | mRNA level, microarray, item: TBX6 | 0.5 µM, 120 h | reference: untreated, down-regulated | fold change | 4.5 fold |
| CC(=O)Nc1ccc(C(=O)Nc2ccccc2N)cc1 | OCI-Ly1 |  | 1 µM, 120 h |  | viability | 46.5% |
| COc1cc2ncnc(Nc3ccc(Oc4ccccc4)cc3C)c2cc1OC.O=C(O)C(F)(F)F | COLO 205 (BRAF V600E) | resazurin | 3 µM, 72 h, with: trametinib 0 nM |  | fractional effect | 39% |
| C[C@H](CCC(=O)NCCS(=O)(=O)O)[C@H]1CC[C@H]2[C@@H]3CC[C@@H]4C[C@H](O)CC[C@]4(C)[C@H]3CC[C@]12C | rat PCK cystic cholangiocytes | cell counting | 20 µM, 48 h | reference: untreated | proliferation increase | 62% |
| NC(=O)c1cccc(N)c1 | OCI-Ly1 |  | 0.5 µM, 120 h |  | viability | 68.2% |
| C[n+]1cc2c3c(ccc2c2ccc4cc5c(cc4c21)OCO5)OCO3 | iPSC-derived cardiomyocytes | concentration-response fit | concentration not given | reference: vehicle | fitted bottom MyBP-C level | 0% |
